Published values collected from several papers.
Compare with care: the assays were run in different laboratories. Values joined by “and” are separate records of one study, mostly repeats; a detail may differ. ± marks the error that the study gave.
TRPM8: Transient receptor potential cation channel subfamily M member 8 (TRPM8, Homo sapiens, UniProt Q7Z2W7)
ROCK1: Rho-associated protein kinase 1 (ROCK1, Homo sapiens, UniProt Q13464)
spsB: Signal peptidase IB (spsB, Staphylococcus aureus, UniProt Q5HHB9)
TNIK: TRAF2 and NCK-interacting protein kinase (TNIK, Homo sapiens, UniProt Q9UKE5)
PKN2: Serine/threonine-protein kinase N2 (PKN2, Homo sapiens, UniProt Q16513)
KCNQ1 with KCNE1: Potassium voltage-gated channel subfamily KQT member 1, with KCNE1 (KCNQ1, Homo sapiens, UniProt P51787)

Compound	target	test	test system	conditions	how to read	remaining activity
Cc1cccc(-c2[nH]c(C(C)(C)C)nc2-c2ccc3c(c2)OCO3)n1	TRPM8	antagonist	HEK293	5 µM	reference: control	105 ± 12.1%
C=CC(=O)N1CCC[C@@H](n2nc(-c3ccc(Oc4ccccc4)cc3)c3c(N)ncnc32)C1	Insulin-like growth factor-binding protein 5 (Homo sapiens, UniProt P24593)			1 µM		95.2%
COc1cc(N2CCN(C)CC2)ccc1Nc1nc(N)n(C(=O)NCc2c(Cl)cccc2Cl)n1	ROCK1	enzyme activity		10 µM	reference: control	1.2%
O=C(Nc1ccc(Nc2ccccc2)cc1)Nc1ccc(Cl)c(C(F)(F)F)c1	spsB	peptidase activity, activator, FRET peptide cleavage	Staphylococcus aureus, membranes	50 µM	reference: DMSO	186%
COc1cccc(-c2cc(=O)c3ccccc3o2)c1N	TRPM8	antagonist	HEK293	5 µM	reference: control	95.1 ± 2.53%
CCOc1cc(N2CCN(C)CC2)ccc1Nc1nc(N)n(C(=O)NCc2ccccc2S(=O)(=O)C(C)C)n1	ROCK1	enzyme activity		10 µM	reference: control	21%
C=CC(=O)N1CCC[C@@H](n2nc(-c3ccc(Oc4ccccc4)cc3)c3c(N)ncnc32)C1	TNIK	kinase activity, inhibitor, HotSpot radiometric		100 nM, together with: ATP 10 µM		72.4 ± 0.9%
O=C(Nc1ccc(Cl)c(C(F)(F)F)c1)N1CCc2ccccc2C1	spsB	peptidase activity, activator, FRET peptide cleavage	Staphylococcus aureus, membranes	50 µM	reference: DMSO	156%
COc1cc(F)ccc1-c1ncnc(Nc2cccc(C[S@](C)(=N)=O)c2)n1	PKN2	kinase activity		10 µM, together with: 10 µM ATP		100%
O=C(Nc1ccc(Cc2ccccc2)cc1)Nc1ccc(Cl)c(C(F)(F)F)c1	spsB	peptidase activity, activator, FRET peptide cleavage	Staphylococcus aureus, membranes	10 µM	reference: DMSO	120%
O=C(NC1CCC1)c1ccc2nc(-c3cccc(NS(=O)(=O)NCCN4CCCCC4)c3)cn2c1	FLT3 (Homo sapiens, UniProt P36888, K663Q)	enzyme activity		10 µM		55%
Oc1ccc(-c2nc(-c3ccc(F)cc3)c(-c3ccncc3)[nH]2)cc1	TRPM8	antagonist	HEK293	5 µM	reference: control	112 ± 8.39%
Cc1cccc(C)c1NC(=O)Nc1ccc(Cl)c(C(F)(F)F)c1	spsB	peptidase activity, activator, FRET peptide cleavage	Staphylococcus aureus, membranes	100 µM	reference: DMSO	110%
CC[n+]1c(/C=C/N(C)c2ccccc2)n(-c2ccccc2)c2ccc(-c3nc4ccccc4s3)cc21	TRPM8	antagonist	HEK293	5 µM	reference: control	42 ± 5.16%
CNC(=O)c1ccc(NC(=O)Nc2ccc(Cl)c(C(F)(F)F)c2)cc1	spsB	peptidase activity, activator, FRET peptide cleavage	Staphylococcus aureus, membranes	50 µM	reference: DMSO	170%
Cc1cc(NC(=O)c2cccc(NC(=O)/C=C/CN(C)C)c2)ccc1Nc1nccc(-c2cccnc2)n1	MAPK8 (Homo sapiens, UniProt P45983)	enzyme activity, inhibitor		0.5487 µM, 18 h, unit not given, together with: GSH 10 mM pre-incubation	reference: vehicle	0.98
CNc1ncc2c(/C=C/C(=O)N3CCC(OC)CC3)nn(Cc3cccc(C(F)(F)F)c3)c2n1	AKT2 (Homo sapiens, UniProt P31751)	kinase activity, inhibitor		1 µM	reference: untreated control	98%
O=C(Nc1ccc(C(=O)Nc2ccccc2)cc1)Nc1ccc(Cl)c(C(F)(F)F)c1	spsB	peptidase activity, activator, FRET peptide cleavage	Staphylococcus aureus, membranes	10 µM	reference: DMSO	110%
CCN(CC)CCCC(C)Nc1ccnc2cc(Cl)ccc12 (stereo not shown)	KCNQ1 with KCNE1	IKs current, patch clamp	HEK293	30 µM	reference: pre-drug current	109%

Compound	target	test	test system	conditions	how to read	remaining activity
O=C(Cc1ccc(Cl)c(C(F)(F)F)c1)Nc1ccc2c(c1)OC(F)(F)O2	spsB	peptidase activity, activator, FRET peptide cleavage	Staphylococcus aureus, membranes	100 µM	reference: DMSO	130%
NC/C(=C\F)COc1cccc(Cn2c(=S)[nH]c(=O)c3[nH]cnc32)c1	Peroxidasin homolog (PXDN, Homo sapiens, UniProt Q92626)	enzyme activity, inhibitor, Amplex UltraRed		2.5 µM	reference: control	84.5% and 87.8%
CCN(CCO)CCCC(C)Nc1ccnc2cc(Cl)ccc12 (stereo not shown)	KCNQ1 with KCNE1	IKs current, patch clamp	HEK293	3 µM	reference: pre-drug current	97.8%
CN(C(=O)Nc1ccc(Cl)c(C(F)(F)F)c1)c1ccc2c(c1)OC(F)(F)O2	spsB	peptidase activity, activator, FRET peptide cleavage	Staphylococcus aureus, membranes	100 µM	reference: DMSO	141%
Cc1cc(Nc2cc(N3CCN(C)CC3)nc(Sc3ccc(NC(=O)C4CC4)cc3)n2)[nH]n1	PLK3 (Homo sapiens, UniProt Q9H4B4)	kinase activity, KinaseProfiler		0.03 µM, species human	reference: control	105%
COc1cc(-c2cncc3c2CN(C)Cc2cc(N4CCNCC4)ccc2-3)cc(OC)c1OC	PRKCG (Homo sapiens, UniProt P05129)	kinase activity		1 µM, human enzyme, together with: ATP 10 µM	reference: DMSO control	100%
COc1cc(Nc2ncc3c(n2)-c2ccc(Cl)cc2C(c2c(F)cccc2OC)=NC3)ccc1C(=O)O	EPHB3	kinase activity		1 µM		92%
CC#CC(=O)N1CCC[C@H]1c1nc(-c2ccc(C(=O)Nc3ccccn3)cc2)c2c(N)nccn12	FLT3 (Homo sapiens, UniProt P36888)	kinase activity, inhibitor, HotSpot radiometric		100 nM, together with: ATP 10 µM		100.3 ± 0.4%
Cc1ccc(S(=O)(=O)/C=C/C#N)cc1	TRPM8	antagonist	HEK293	5 µM	reference: control	94.3 ± 8.51%
O=C1NC(=O)/C(=C/c2ccc(-c3ccc(F)cc3O)o2)S1	PKN2	enzyme activity		10 µM		88%
CNc1cc2c(Nc3cccc(Br)c3)ncnc2cn1	TRPM8	antagonist	HEK293	5 µM	reference: control	91.1 ± 16.8%
COc1cc(O)c(CC=C(C)C)c(O)c1C(=O)/C=C/c1ccc(O)cc1	Thyroxine 5-deiodinase (DIO3, Homo sapiens, UniProt P55073)			200 µM, 0.1667 h		11.3%
C=CC(=O)N1CCC([C@@H]2CCNc3c(C(N)=O)c(-c4ccc(Oc5ccccc5)cc4)nn32)CC1	TNIK	kinase activity, inhibitor, HotSpot radiometric		100 nM, together with: ATP 10 µM		101.4 ± 0.2%
COc1cc2ncnc(Nc3ccc(Oc4ccccc4)cc3)c2cc1OC	TRPM8	antagonist	HEK293	5 µM	reference: control	108 ± 6.8%
COc1cc(N2CCN(C)CC2)ccc1Nc1nc(N)n(C(=S)NCc2c(Cl)cccc2Cl)n1	ERN1 (Homo sapiens, UniProt O75460)	enzyme activity		10 µM	reference: control	2.4%
O=S(=O)(NCCNC/C=C/c1ccc(Br)cc1)c1cccc2cnccc12	TRPM8	antagonist	HEK293	5 µM	reference: control	93.4 ± 9.16%
COc1ccc(F)cc1C(=O)NCc1ccc(-c2nn([C@@H](C)C(F)(F)F)c(N)c2C(N)=O)cc1	TNIK	kinase activity, inhibitor, HotSpot radiometric		100 nM, together with: ATP 10 µM		73.1 ± 0.1%
O=C(O)c1ccc(Nc2ncc3c(n2)-c2ccc(Cl)cc2C(c2c(F)cccc2F)=NC3)cc1	PKCε(h)	kinase activity		1 µM		123%

Some of these lines once more:
Compound	target	test	test system	conditions	how to read	remaining activity
Cc1cc(NC(=O)c2cccc(NC(=O)/C=C/CN(C)C)c2)ccc1Nc1nccc(-c2cccnc2)n1	MAPK8 (Homo sapiens, UniProt P45983)	enzyme activity, inhibitor		0.5487 µM, 18 h, unit not given, together with: GSH 10 mM pre-incubation	reference: vehicle	0.98
C=CC(=O)N1CCC([C@@H]2CCNc3c(C(N)=O)c(-c4ccc(Oc5ccccc5)cc4)nn32)CC1	TNIK	kinase activity, inhibitor, HotSpot radiometric		100 nM, together with: ATP 10 µM		101.4 ± 0.2%
